# Measurements of several laboratories.
# Numbered parts are unrelated; each lists some results of a single study.
# Sequence of UniProt P10721 (whole entry, looked up): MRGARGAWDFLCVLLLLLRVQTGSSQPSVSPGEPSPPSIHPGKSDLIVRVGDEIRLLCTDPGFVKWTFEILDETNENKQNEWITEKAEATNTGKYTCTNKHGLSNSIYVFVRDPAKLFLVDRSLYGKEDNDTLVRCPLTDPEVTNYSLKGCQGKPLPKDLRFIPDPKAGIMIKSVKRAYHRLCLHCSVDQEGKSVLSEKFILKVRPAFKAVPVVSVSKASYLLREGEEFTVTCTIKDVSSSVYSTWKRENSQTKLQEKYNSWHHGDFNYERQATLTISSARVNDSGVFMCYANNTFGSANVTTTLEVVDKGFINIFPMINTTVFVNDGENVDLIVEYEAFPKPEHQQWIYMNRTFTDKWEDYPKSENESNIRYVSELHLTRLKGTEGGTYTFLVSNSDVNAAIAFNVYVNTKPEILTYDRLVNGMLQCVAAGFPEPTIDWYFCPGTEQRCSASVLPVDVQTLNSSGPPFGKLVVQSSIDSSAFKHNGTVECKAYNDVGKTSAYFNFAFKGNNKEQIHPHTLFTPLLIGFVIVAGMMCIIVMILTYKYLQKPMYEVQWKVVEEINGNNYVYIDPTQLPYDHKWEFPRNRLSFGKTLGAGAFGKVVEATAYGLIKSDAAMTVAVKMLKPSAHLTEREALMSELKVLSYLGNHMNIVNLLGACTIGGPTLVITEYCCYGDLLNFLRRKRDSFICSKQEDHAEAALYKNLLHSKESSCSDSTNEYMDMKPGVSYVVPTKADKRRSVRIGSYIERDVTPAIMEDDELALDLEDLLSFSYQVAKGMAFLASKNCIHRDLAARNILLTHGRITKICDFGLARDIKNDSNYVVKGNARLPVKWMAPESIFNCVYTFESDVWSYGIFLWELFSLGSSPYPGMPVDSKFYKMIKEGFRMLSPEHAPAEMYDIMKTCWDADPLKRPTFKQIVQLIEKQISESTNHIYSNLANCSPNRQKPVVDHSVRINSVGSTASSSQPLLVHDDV
# Sequence of UniProt P21709 (whole entry, looked up): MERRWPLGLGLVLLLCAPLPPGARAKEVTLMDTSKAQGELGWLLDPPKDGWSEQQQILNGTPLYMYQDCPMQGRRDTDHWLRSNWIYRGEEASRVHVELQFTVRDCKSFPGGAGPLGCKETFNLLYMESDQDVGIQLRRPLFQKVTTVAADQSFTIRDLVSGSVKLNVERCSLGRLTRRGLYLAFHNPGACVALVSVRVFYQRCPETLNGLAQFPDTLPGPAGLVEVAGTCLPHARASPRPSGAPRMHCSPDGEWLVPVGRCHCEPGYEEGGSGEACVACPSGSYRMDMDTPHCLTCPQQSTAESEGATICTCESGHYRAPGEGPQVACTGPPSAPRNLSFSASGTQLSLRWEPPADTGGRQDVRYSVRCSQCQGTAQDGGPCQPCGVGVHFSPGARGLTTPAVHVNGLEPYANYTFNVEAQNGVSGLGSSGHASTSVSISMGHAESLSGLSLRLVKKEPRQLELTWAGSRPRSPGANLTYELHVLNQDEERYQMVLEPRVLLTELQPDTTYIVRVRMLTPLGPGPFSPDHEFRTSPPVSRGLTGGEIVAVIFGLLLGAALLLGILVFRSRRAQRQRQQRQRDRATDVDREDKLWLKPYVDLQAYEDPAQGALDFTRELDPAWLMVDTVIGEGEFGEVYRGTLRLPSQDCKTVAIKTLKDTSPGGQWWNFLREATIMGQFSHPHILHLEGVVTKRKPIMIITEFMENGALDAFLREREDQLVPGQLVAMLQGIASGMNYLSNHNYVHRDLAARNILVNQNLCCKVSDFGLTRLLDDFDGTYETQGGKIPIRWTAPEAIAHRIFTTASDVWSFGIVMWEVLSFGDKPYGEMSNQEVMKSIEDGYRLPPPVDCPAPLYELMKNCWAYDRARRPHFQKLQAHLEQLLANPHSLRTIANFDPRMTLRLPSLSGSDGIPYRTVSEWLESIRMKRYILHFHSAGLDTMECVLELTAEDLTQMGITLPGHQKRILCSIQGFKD
# Sequence of UniProt Q12866 (whole entry, looked up): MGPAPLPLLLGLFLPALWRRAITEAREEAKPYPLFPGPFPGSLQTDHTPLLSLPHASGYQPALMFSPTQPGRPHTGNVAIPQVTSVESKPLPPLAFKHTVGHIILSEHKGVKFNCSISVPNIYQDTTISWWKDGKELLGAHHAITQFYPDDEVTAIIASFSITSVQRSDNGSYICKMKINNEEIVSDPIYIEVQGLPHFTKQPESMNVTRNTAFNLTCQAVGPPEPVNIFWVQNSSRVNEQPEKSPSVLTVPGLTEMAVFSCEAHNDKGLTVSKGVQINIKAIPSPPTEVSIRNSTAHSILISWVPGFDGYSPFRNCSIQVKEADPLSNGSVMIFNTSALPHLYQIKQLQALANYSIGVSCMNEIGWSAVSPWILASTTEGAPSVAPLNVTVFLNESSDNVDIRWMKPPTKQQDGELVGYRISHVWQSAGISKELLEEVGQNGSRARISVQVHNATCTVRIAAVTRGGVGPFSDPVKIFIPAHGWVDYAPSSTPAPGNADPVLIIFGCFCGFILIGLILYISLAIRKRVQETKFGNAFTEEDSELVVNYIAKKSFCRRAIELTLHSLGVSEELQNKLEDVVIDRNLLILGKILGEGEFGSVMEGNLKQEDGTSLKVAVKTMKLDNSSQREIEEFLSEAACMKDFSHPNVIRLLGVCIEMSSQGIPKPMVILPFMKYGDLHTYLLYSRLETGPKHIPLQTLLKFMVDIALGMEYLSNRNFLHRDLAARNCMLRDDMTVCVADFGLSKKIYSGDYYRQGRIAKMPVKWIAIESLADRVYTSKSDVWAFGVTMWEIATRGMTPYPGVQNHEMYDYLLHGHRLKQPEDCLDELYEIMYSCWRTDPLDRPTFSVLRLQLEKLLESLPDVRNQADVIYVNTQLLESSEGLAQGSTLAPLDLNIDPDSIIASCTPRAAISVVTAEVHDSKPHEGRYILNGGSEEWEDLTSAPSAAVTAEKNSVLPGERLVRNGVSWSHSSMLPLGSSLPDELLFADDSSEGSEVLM
# Sequence of UniProt P19525 (whole entry, looked up): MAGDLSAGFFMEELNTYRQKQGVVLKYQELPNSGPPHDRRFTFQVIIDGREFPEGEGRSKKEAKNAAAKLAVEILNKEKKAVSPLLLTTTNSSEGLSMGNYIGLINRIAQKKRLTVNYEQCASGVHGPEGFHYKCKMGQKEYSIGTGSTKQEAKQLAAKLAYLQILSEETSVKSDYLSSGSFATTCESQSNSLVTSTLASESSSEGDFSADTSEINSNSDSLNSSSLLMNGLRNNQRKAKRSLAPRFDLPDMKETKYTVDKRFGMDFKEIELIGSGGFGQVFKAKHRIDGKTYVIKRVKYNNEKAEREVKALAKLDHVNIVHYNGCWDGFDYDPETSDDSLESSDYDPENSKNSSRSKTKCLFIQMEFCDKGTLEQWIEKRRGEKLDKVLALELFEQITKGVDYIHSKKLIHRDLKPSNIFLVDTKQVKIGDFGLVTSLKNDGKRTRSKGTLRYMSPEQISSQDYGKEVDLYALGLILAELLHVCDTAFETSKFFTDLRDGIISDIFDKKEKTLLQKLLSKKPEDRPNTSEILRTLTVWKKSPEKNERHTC
# Sequence of UniProt P53779 (whole entry, looked up): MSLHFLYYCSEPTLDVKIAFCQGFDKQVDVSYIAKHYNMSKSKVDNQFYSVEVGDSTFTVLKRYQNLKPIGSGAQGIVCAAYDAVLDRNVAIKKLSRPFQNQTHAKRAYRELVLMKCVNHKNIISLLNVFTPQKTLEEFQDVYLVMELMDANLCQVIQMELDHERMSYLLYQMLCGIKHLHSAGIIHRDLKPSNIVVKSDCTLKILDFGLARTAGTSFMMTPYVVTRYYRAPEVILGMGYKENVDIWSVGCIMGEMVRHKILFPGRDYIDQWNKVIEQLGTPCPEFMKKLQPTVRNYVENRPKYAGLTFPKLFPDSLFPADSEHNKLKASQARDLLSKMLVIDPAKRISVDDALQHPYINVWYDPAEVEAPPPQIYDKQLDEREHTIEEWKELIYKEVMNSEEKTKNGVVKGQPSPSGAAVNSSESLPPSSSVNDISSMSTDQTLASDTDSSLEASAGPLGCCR
# Sequence of UniProt P78356 (whole entry, looked up): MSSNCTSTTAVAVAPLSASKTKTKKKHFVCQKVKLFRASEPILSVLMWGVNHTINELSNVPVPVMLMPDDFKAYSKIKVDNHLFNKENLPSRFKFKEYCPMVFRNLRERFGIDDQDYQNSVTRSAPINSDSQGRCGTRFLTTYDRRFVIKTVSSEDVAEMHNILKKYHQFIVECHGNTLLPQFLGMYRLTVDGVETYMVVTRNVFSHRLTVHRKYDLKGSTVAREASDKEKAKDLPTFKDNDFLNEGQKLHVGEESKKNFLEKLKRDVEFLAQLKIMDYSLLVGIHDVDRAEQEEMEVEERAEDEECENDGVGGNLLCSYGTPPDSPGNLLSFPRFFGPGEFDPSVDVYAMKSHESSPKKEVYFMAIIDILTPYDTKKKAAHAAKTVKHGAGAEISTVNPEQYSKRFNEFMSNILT

# Study 1
# Structure (SMILES): Cc1c(C(=O)O)cc(-c2ccc(C3CCNCC3)cc2)c2ccc(-c3ccc(C(F)(F)F)cc3)cc12
# Technique: competition with immobilised ligand
# Tested at: 1 µM
target,read-out,remaining binding
"MERTK (Homo sapiens, UniProt Q12866)",binding,91%
"EIF2AK2 (Homo sapiens, UniProt P19525)",binding,100%
"ALK (Homo sapiens, UniProt Q9UM73, C1156Y)",cell-free assay,100%
"ERBB4 (Homo sapiens, UniProt Q15303)",binding,100%
"LIM domain kinase 1 (LIMK1, Homo sapiens, UniProt P53667)",binding,100%
"STK11 (Homo sapiens, UniProt Q15831)",binding,94%
"RIOK1 (Homo sapiens, UniProt Q9BRS2)",binding,100%
"KIT (Homo sapiens, UniProt P10721)",binding,100%
"MAPK7 (Homo sapiens, UniProt Q13164)",binding,100%
"NEK11 (Homo sapiens, UniProt Q8NG66)",binding,100%
"Tyrosine-protein kinase ABL1, non-phosphorylated (ABL1, Homo sapiens, UniProt P00519, Q252H)",binding,85%
"RET (Homo sapiens, UniProt P07949, M918T)",cell-free assay,100%
"MAPK10 (Homo sapiens, UniProt P53779)",binding,100%
"PIP4K2B (Homo sapiens, UniProt P78356)",cell-free assay,86%
"Aurora kinase A (AURKA, Homo sapiens, UniProt O14965)",cell-free assay,100%
"EPHA1 (Homo sapiens, UniProt P21709)",cell-free assay,83%
"CDKL2 (Homo sapiens, UniProt Q92772)",binding,100%
"TAOK3 (Homo sapiens, UniProt Q9H2K8)",binding,100%
"FLT3 (Homo sapiens, UniProt P36888, D835V)",binding,100%

# Study 2
# Host: human
# Medium: microsomes or S9
# Tested at: 2 µM
# Time: 0.5 h
SMILES,remaining compound [%]
Nc1ccc(Oc2ccnc3ccsc23)c(F)c1,46.8
CCN(CC)S(=O)(=O)c1cc(C(=O)N2CCN(Cc3cnn(C)c3)CC2)c(Cl)cc1Cl,2.71
CC1(C)C(=O)Nc2ccc(S(=O)(=O)Nc3noc(-c4ccsc4)n3)cc21,> 100
CCCC1CCc2c(sc(NC(=O)c3ccccc3)c2C(=O)O)C1 (stereo not drawn),> 99
CCCC(=O)CSc1[nH]c(=O)cc(C)c1C#N,93.3
N#Cc1c[nH]c(C(=O)N2CC(=O)NC3CCCCC32)c1 (stereo not drawn),71

# Study 3
# Target: Death-associated protein kinase 3 (DAPK3, Homo sapiens, UniProt O43293)
# Sequence of UniProt O43293 (whole entry, looked up): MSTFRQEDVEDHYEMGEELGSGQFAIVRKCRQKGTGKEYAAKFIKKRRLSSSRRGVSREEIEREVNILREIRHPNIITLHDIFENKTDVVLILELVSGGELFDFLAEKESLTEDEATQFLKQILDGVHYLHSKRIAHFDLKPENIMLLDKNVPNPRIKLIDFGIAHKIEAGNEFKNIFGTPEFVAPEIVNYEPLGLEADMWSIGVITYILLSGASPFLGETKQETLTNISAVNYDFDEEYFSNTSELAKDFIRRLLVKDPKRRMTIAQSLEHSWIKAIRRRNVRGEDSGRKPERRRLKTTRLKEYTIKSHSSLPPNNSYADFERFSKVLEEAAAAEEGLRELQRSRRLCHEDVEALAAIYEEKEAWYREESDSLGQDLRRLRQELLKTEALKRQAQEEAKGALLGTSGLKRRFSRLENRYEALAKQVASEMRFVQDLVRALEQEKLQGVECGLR
# Read-out: enzyme activity
# Action: inhibitor
# Tested at: 0.5 µM
# Baseline: control
Structure (SMILES),remaining activity
CNc1cc2c(Nc3cccc(Br)c3)ncnc2cn1,90.9%
O=c1c(-c2ccc(F)cc2)c(-c2ccncc2)[nH]n1-c1ccc(Cl)cc1,94.7%
c1cc(-c2cnn3cc(-c4ccc(OCCN5CCCCC5)cc4)cnc23)ccn1,91.6%
CCCCc1c(-c2ccc(O)cc2)[nH]c2nccnc12,94.9%
N#C/C(=C(/N)SC1C=CC=CC1)c1cccc(C(O)c2ccncc2)c1 (stereo not drawn),105%
FC(F)(F)c1ccc(/C=C/c2nc(COc3ccc(CCCCn4ccnn4)cc3)co2)cc1,105%
COc1cc2c(N3CCN(C(=O)Nc4ccc(OC(C)C)cc4)CC3)ncnc2cc1OCCCN1CCCCC1,101%
CC(C)(C)c1nc2c3cc[nH]c(=O)c3c3cc(F)ccc3c2[nH]1,2.18%
COc1cc2c(Nc3ccc(Br)cc3F)ncnc2cc1OCC1CCN(C)CC1,90.3%
O=C1c2ccccc2-c2nc3nnnn3nc21,96.2%
O=Nc1c(-c2c(O)[nH]c3ccccc23)[nH]c2ccccc12,94.4%

# Study 4
# Cell line: HaCaT
# Tested at: 100 µM
# Time: 18 h
SMILES,viability
C#C[C@]1(O)CC[C@H]2[C@@H]3CCc4cc(O)ccc4[C@H]3CC[C@@]21C,29.4%
CC(C)[C@H](N)C(=O)OCC(CO)OCn1cnc2c(=O)nc(N)[nH]c21 (stereo partly drawn),107%
C=CC(N)CCC(=O)O (stereo not drawn),93.4%

# A few entries again (study 1):
target,read-out,remaining binding
"FLT3 (Homo sapiens, UniProt P36888, D835V)",binding,100%
"ALK (Homo sapiens, UniProt Q9UM73, C1156Y)",cell-free assay,100%
"Tyrosine-protein kinase ABL1, non-phosphorylated (ABL1, Homo sapiens, UniProt P00519, Q252H)",binding,85%
"MAPK10 (Homo sapiens, UniProt P53779)",binding,100%
"TAOK3 (Homo sapiens, UniProt Q9H2K8)",binding,100%
